# Measurements from different studies.
# A part holds a random share of what one study measured.

# Set 1 — method: protein binding microarray; molecule type: double-stranded DNA, one strand shown; matrix: in vitro; concentration: not given; relative to: not given; reading: higher = stronger binding
# Target: Histone acetyltransferase KAT6A, winged helix 2, GST fusion (KAT6A, Homo sapiens, UniProt Q92794, residues 85-181)
# Notes: 8-mer, flanks averaged, mean of 2 arrays, mostly near background
# Construct (chain): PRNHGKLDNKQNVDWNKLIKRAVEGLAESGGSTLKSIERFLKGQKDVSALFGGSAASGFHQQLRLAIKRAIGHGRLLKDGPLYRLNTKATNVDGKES
Strand,E-score
CGGTAAAC,-0.14
ATCGGACC,0.0834
CGCAGTGA,0.117
AGGCGCTC,0.116

# Set 2 — method: universal PBM; molecule type: double-stranded DNA, one strand shown; matrix: in vitro; concentration: not given; reading: higher = stronger binding
# Target: Sal-like protein 4, full length isoform B (SALL4, Homo sapiens, UniProt Q9UJQ4-2, residues 1-616)
# Notes: 8-mer, flanks averaged, mean of replicates
Strand,E-score
CAACATCA,0.176
GCTCGTAA,0.0312
AAATCCCT,-0.0338
CGATTTCA,0.0459
TATCGGCA,0.0327
AATCGAAG,0.0469
CTTTACTA,0.157

# Set 3 — method: RNA Bind-n-Seq; molecule type: RNA; matrix: in vitro; concentration: 200 nM; notes: whole 134-nt RNA, ends assumed; with: 150 mM KCl; relative to: input library; reading: higher = stronger binding
# Target: Ras GTPase-activating protein-binding protein 1, full length (G3BP1, Homo sapiens, UniProt Q13283)
# Chain of UniProt Q13283 (whole entry, looked up): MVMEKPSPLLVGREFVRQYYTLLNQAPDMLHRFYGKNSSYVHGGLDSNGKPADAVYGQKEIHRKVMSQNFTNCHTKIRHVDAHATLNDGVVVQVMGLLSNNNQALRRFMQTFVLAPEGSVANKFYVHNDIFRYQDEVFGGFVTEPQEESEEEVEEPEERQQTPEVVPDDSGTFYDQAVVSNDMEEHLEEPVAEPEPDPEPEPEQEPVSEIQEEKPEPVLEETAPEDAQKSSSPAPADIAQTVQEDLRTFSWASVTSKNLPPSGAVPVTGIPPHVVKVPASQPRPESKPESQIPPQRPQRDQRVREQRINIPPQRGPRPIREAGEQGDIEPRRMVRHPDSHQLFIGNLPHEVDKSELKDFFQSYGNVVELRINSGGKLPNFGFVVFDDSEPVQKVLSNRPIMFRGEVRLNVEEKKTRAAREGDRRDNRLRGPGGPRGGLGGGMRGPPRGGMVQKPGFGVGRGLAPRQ
Strand,log2 enrichment
GGGAGUUCUACAGUCCGACGAUCCCUCAAGUCCUGUGCUACACAUCGUAUGUACCGAAUCGGAAAGGAAAGGAGGAAAGUAUUAUGUUACGCCGUUCGGAUCUGCACUUCCAGUGGAAUUCUCGGGUGUCAAGG,-0.00567
GGGAGUUCUACAGUCCGACGAUCCCAUAGACCCCUUUCUUCUCCCCUUCCCCACGGUAGGAACAUAGCGUGUUUAUAUUUUAUGGCCAAACUAUUUUGAAUUUUGUUGUCCGGUGGAAUUCUCGGGUGUCAAGG,-0.0825
GGGAGUUCUACAGUCCGACGAUCCCUGUGCUACACAUCGUAUGUACCGAAUCGGGGAAAAAAAGGGGUUUUUGGGGAAAGGGGAAAGUAUUAUGUUACGCCGUUCGGAUCUGCUGGAAUUCUCGGGUGUCAAGG,0.389
GGGAGUUCUACAGUCCGACGAUCACCAUGCAGGUGGGCAUCUUUGGGAAGUGGGGCAAGGGGGGGAUAGGGAGGGGGGUAACACUUUGUGAACAGGUGGUCCCAGGUCGUUUCUGGAAUUCUCGGGUGUCAAGG,1.43

# Single results of other studies
Molecule,target,test,system,setting,scale,quantity,value
"PhoQ, residues 284 288 289 292 302 303 NLGVHL","PhoP, residues 12 14 15 18 19 LHATL (Escherichia coli, UniProt P23836)","Sort-seq, measured: YFP reporter",E. coli,"PhoQ-PhoP variant library, with: 10 µM Mg2+","relative to: high Mg2+ state, higher = stronger signaling",fold induction,0.0689

# Repeated from above (set 2):
Strand,E-score
GCTCGTAA,0.0312
AAATCCCT,-0.0338
